Published values of several laboratories.
Protocols differ between the studies behind these lines. “And” joins repeats or separate records; there may be more than shown. ± marks the error that the study gave.

| Molecule | test | system | conditions | scale | measurement | value |
| --- | --- | --- | --- | --- | --- | --- |
| COc1ccc(-c2nc3ccccc3s2)cc1OCc1nnc(-c2ccc([N+](=O)[O-])cc2)o1 | seizure protection | albino mouse, scPTZ-induced seizure | ip, 4.0 h |  | minimal effective dose | 30 mg/kg |
| CC(C)(O)CNc1nc(Nc2ccnc(C(F)(F)F)c2)nc(-c2cccc(C(F)(F)F)n2)n1 | measured: 2-hydroxyglutarate | human newly diagnosed mIDH AML | oral, 100 mg once daily, induction cycle 1 day 1, with: induction chemotherapy |  | plasma 2-HG trough reduction | 37.8% |
| WLLPGTSTV | agonist tetramer binding, flow cytometry | peptide, CD8+ T cells primed with compound, human | dose not given, 10 days |  | tetramer-positive CD8+ T cells | 66.1% and 66% |
| difelikefalin |  | Japanese haemodialysis patients with pruritus | intravenous, 0.25 µg/kg thrice weekly, week 8 | baseline: baseline, direction not given | NRS itch score change | -2.97 |
| CC(C)=CCOc1c2occc2cc2ccc(=O)oc12 |  | female SENCAR mice, liver cytosol | oral, 70 mg/kg, 4 days, with: DCNB substrate | baseline: corn oil vehicle, maximum induction | GST activity | 300% |
| insulin aspart | euglycaemic clamp | type 1 diabetes patients | subcutaneous, 0.2 U/kg single, 2 h to 12 h, antibody quartile 2, 3.12-6.53 %B/T |  | AUC glucose infusion rate | 745 mg/kg |
| COc1ccc(-c2nc3ccccc3s2)cc1OCc1nnc(-c2ccc(Cl)cc2)o1 | hind limb tonic extension | albino mouse, MES-induced seizure | ip, 4.0 h |  | minimal effective dose | 100 mg/kg |
| C=CCn1c(=O)c2cnc(Nc3ccc(N4CCN(C)CC4)cc3)nc2n1-c1cccc(C(C)(C)O)n1 | immunohistochemistry | human patients, resected tumour | dose not given, 8 h, all dose cohorts combined | baseline: matched archival tissue | increase in γH2AX level | 210% |
| O=C1O[C@H]([C@@H](O)CO)C(O)=C1O | DPPH radical scavenging |  | 30 min |  | IC50 | 3.4 µM |
| COc1ccc(-c2nc3ccccc3s2)cc1OCc1nnc(C(c2ccccc2)c2ccccc2)o1 | seizure protection | albino mouse, scPTZ-induced seizure | ip, 4.0 h |  | minimal effective dose | 300 mg/kg |
| neuropeptide Y | mean arterial pressure | rat Sprague Dawley urethane-anaesthetized | intravenous, 5 nmol |  | time to response resolution | 23.1 ± 6 min |
| Cc1c2ccccc2cc2ccc3ccccc3c12 | adrenal apoplexy prevention | rat | oral, with: 7,12-DMBA 5 mg i.v. |  | non-protective dose | 0.5 mg |
| CCCCC[C@H](O)/C=C/[C@H]1[C@H](O)CC(=O)[C@@H]1CCCCCCC(=O)O | antagonist | Rhinella marina urinary bladder | with: [2-O-methyltyrosine]-oxytocin | baseline: response without compound | minimal maximal response fraction | 0.1 |
| CCCCC/C=C\C/C=C\CCCCCCCC(=O)O |  | neonatal hUGT1 mice | oral, dose not given, 48 h |  | serum total bilirubin | 1.9 mg/dL |
| Cn1cnc2c(F)c(Nc3ccc(Br)cc3Cl)c(C(=O)NOCCO)cc21 | volumetric MRI | sample A plexiform neurofibroma patients, growing tumours | dose not given |  | partial response rate | 67% |
| COc1cccc(CN(C)Cc2cccc(CN(C)Cc3cccc(OC)c3)n2)c1 |  | mouse carrageenan paw edema | ip, 10 mg/kg daily, 74 h | baseline: vehicle | paw edema inhibition | 31% |
| COc1ccc(-c2nc3ccccc3s2)cc1OCc1nnc(-c2ccc(N)cc2)o1 | hind limb tonic extension | albino mouse, MES-induced seizure | ip, 4.0 h |  | minimal effective dose | 100 mg/kg |
| Nc1cc2c3ccccc3ccc2c2ccccc12 | adrenal apoplexy prevention | rat | oral, with: 7,12-DMBA 5 mg i.v. |  | non-protective dose | 0.5 mg |
| O=C(/C=C/c1ccc(O)c(O)c1)OCCCCc1ccccc1 | DPPH | ethanol | 20 µM, 30 min, room temperature |  | radical scavenging | 69% |
